Experimental data pooled from the literature.
Numbered parts are unrelated; each lists some results of a single study. Positions count from the first letter of the parent shown.

Set 1 — method: protein-binding microarray; form: double-stranded DNA, one strand shown; medium: in vitro; tested at: 250 nM; notes: 60-bp whole probe; together with: salmon DNA 0.4 mg/ml; baseline: random background probes; reading: higher = stronger binding; quantity: log fluorescence; constant ends, left off below: GCCTAGCAC … GTCTTGATTCGCTTGACGCTGCTG
Target: Interferon regulatory factor 7, full length, phosphomimetic (IRF7, Homo sapiens, UniProt Q92985, residues 1-503, S101K/S471D/S472D/S475D/S476D/S477D/S483D/S484D/S487D)
Chain of UniProt Q92985 (whole entry, unmodified, looked up): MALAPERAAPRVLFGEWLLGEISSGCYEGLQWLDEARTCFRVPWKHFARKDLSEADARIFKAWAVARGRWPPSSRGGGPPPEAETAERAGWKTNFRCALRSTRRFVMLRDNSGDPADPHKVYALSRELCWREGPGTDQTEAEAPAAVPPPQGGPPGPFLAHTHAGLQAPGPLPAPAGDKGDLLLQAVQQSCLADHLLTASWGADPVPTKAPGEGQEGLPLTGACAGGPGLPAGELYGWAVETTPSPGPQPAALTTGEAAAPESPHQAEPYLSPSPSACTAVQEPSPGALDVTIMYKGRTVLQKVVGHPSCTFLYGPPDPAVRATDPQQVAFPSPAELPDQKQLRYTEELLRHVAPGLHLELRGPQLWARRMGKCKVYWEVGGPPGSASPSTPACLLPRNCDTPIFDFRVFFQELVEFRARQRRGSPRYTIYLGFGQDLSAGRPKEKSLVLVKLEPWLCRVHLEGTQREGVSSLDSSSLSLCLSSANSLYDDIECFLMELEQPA
TTAGGTTTCGGACTGGGTTGGTGCTAG: 3.58 z-score
GACGAACTGGACTTTCGGGACGTGCTA: -0.167 z-score
AATGACTCTATGAAGTAGTTGTGCTAG: -0.251 z-score
GACGGACTGGGGACTGGGAACGTGCTA: -0.607 z-score
TTAGGACTGGACTTTCAGTTAGTGCTA: -0.685 z-score
GTAGGTTTCGACTTTCGGTTAGTGCTA: 10.9 z-score
GACGAACTGAATCTCGAGACGTGCTAG: 0.468 z-score
CCGCCGCCTGGCTGGGGGATGTGCTAG: -0.359 z-score
GACGGTTTCCTTCTCCTGCCGTGCTAG: 2.3 z-score
TTAAGTTTCGGGACTGGGTTAGTGCTA: 4.45 z-score
GACAGTTTCGGGACTGGGGACGTGCTA: 3.53 z-score

Set 2 — method: aptamer microarray, sandwich; form: DNA with 2'F-ANA; medium: in vitro; tested at: 200 nM; together with: Cy3 exosite-II aptamer, 400 nM; reading: higher = stronger binding; quantity: mean fluorescence intensity; sequence: GGTTGGTGTGGTTGG
Target: Prothrombin, mature alpha-thrombin (F2, Homo sapiens, UniProt P00734)
Notes: whole 15-mer aptamer, many near background
2'F-ANA at 5 6 10 13 15: 60.4 a.u.
2'F-ANA at 2 4 5 6 8 15: 145 a.u.
2'F-ANA at 1 2 3 4 5 8 9 10 12 14 15: 178 a.u.
2'F-ANA at 1 2 4 5 6 7 8 9 10 11 12: 56.5 a.u.
2'F-ANA at 3 6 12 13: 1200 a.u.
2'F-ANA at 4 8 9 11 15: 266 a.u.
2'F-ANA at 2 5 7 8 9 11 13 14 15: 44.7 a.u.
2'F-ANA at 3 4 7 8 9 11 13 14 15: 293 a.u.
2'F-ANA at 1 2 3 6 7 10 11 12 13 14: 55.2 a.u.
2'F-ANA at 5 7 8 10 11 14 15: 46.7 a.u.
2'F-ANA at 2 3 4 5 6 7 9 10 11 12 13 14 15: 73.5 a.u.
2'F-ANA at 4 9 10 15: 82.8 a.u.
2'F-ANA at 9 10 12: 225 a.u.
2'F-ANA at 2 5 6 11 12 13 15: 83.2 a.u.
2'F-ANA at 5 6 7 8 9 11 14 15: 47.3 a.u.
2'F-ANA at 1 2 4 6 7 8 9 12 14 15: 63.8 a.u.
2'F-ANA at 4 5 7 8 11 13: 53.5 a.u.
2'F-ANA at 2 6 9 10 11 14 15: 79.1 a.u.
2'F-ANA at 1 2 3 4 6 7 9 10 13 15: 59.8 a.u.
2'F-ANA at 3 4 7 8 11 14 15: 402 a.u.
2'F-ANA at 1 3 5 6 8 9: 69.5 a.u.
2'F-ANA at 2 4 6 9 13 14 15: 70.7 a.u.
2'F-ANA at 1 2 3 5 6 10 13: 46.7 a.u.
2'F-ANA at 5 6 7 9 10 11 12 15: 79.9 a.u.
2'F-ANA at 1 3 5 10 11 13 15: 45.7 a.u.

Set 3 — target: CCNB2, cyclin fold, Cln2 fusion (human); method: yeast growth competition, sequencing; medium: yeast; notes: weak parent motif; baseline: not given; reading: higher = stronger binding; quantity: normalised enrichment score
Starting sequence: PKN2 docking peptide (human); VSAVQKLDFSDTM
K6G: -0.274
M13S: -0.00152
D8N: -0.252
K6R: -0.174
V4C: -0.364
T12F: -0.181
K6T: 0.218
L7E: -0.0906
V4G: -0.886
V1F: 0.396
F9T: -0.142
T12L: 0.296
D11L: 0.0887
T12Q: -0.284
S2Q: 0.0648

Set 4 — method: DHFR PCA, deep sequencing; medium: yeast; together with: (+)-ABA 0.032 µM; baseline: wild-type fitted maximum; reading: higher = stronger binding; quantity: relative binding score
Target: ABI1, truncated, D143A, DHFR fusion (Arabidopsis thaliana)
Notes: methotrexate growth selection, single substitutions
Starting sequence: PYL1, truncated, DHFR fusion (Arabidopsis thaliana); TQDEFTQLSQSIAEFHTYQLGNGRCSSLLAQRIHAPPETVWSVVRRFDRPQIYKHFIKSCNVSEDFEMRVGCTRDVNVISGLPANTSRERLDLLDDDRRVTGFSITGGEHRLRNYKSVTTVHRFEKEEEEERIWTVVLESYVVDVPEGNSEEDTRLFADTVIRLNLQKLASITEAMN; partner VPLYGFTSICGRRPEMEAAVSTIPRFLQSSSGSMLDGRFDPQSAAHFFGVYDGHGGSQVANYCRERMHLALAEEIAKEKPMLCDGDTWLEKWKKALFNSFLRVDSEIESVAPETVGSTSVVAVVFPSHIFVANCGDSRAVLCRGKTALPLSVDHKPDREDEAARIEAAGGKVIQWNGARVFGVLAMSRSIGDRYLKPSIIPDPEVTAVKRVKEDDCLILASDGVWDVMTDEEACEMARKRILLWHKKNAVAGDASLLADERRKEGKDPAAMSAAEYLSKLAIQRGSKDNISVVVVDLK
A170I: -17.8%
I33F: -2.07%
S80C: 29.5%
C60F: -5.55%
S87C: 44.4%
K116C: 0.317%
E152A: 15.9%
I133P: 48.3%
E147Y: 7.07%
G21F: -2.16%
D65Y: -5.65%
Q31W: 0.242%
Y141D: 4.16%
N22S: 37.6%
D92Q: -3.17%

Set 5 — method: RNA Bind-n-Seq; form: RNA; medium: in vitro; tested at: 1 µM; notes: whole 134-nt RNA, ends assumed; together with: 150 mM KCl; baseline: input library; reading: higher = stronger binding; quantity: log2 enrichment
Target: Ras GTPase-activating protein-binding protein 1, RRM domain (G3BP1, Homo sapiens, UniProt Q13283)
Chain of UniProt Q13283 (whole entry, looked up): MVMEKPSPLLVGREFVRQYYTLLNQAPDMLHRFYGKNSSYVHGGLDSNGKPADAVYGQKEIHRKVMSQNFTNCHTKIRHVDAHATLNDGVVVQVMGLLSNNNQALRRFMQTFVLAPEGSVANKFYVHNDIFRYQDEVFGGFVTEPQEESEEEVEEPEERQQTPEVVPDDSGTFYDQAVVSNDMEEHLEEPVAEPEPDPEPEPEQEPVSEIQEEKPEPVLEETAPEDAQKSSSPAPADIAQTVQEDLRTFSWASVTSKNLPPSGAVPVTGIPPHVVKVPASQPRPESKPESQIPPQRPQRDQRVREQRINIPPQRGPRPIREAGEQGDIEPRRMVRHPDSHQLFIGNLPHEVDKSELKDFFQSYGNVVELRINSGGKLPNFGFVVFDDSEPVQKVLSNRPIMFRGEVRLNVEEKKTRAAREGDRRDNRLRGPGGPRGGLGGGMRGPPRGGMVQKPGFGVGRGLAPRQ
Constant ends, left off below: GGGAGUUCUACAGUCCGACGAUC … UGGAAUUCUCGGGUGUCAAGG
UGCUUGUUCUGGAGUGAUCUUCUGACUGGAAAAGAACUAUGUCAUGGAUCAAGGAAGGAGAGCUGUCACUUUGGGAGCGGUUCUGUGCCA: 0.26
AAGUCCUGUGCUACACAUCGUAUGUACCGAAUCGGGUGGGAAAGGGUUUUUUUGGGAAAGUAUUAUGUUACGCCGUUCGGAUCUGCACUU: 0.659
UGUCCUGUGCUUUCACAUUCUUUCUGCAUGGAGAAAGUAAUGUAUGCACAAGUGUGGAGAUUGCCCAGCACCAGCCAAUUUAUUUGAUCA: -0.05
GUCCUGUGCUACACAUCGUAUGUACCGAAUCGGGGUUUUUGGUUUUUGGGGUUUUUGGAAAGUAUUAUGUUACGCCGUUCGGAUCUGCAC: -0.23
UCAAGUCCUGUGCUACACAUCGUAUGUACCGAAUCGGGAGGGUUUUUGGGAGGGAAAGUAUUAUGUUACGCCGUUCGGAUCUGCACUUCC: 0.619
AAGUCCUGUGCUACACAUCGUAUGUACCGAAUCGGGAAAAGGAAAAGGAAAAGGGGAAAGUAUUAUGUUACGCCGUUCGGAUCUGCACUU: -0.0681
AGUCCUGUGCUACACAUCGUAUGUACCGAAUCGGCCCCCGGGGCCCCCGGGCCCCCGGAAAGUAUUAUGUUACGCCGUUCGGAUCUGCAC: -0.529
GCAGGAAGUAAAAACAAAUGGAAAUGCUUCGGAUAGGGGCAGGGGUGGGGGUUGCUAAGGAAAGGGUGGGAUGGGAGUGGGUAAAGAGUU: 0.915
AGUCCUGUGCUACACAUCGUAUGUACCGAAUCGGGGUUUGGGGAGGGGAAAAAGGGGAAAGUAUUAUGUUACGCCGUUCGGAUCUGCACU: 0.991
CACAGACAACCCGCACCCACACAGACACAGAGGGAAGGGGUUGGGAUGGGGACAGGGUGCACAGCAGGGCGGGGUAGGACCCCAGCCCCU: -0.119
GUCCUGUGCUACACAUCGUAUGUACCGAAUCGGAAAAAAGGAAAAAAGGGGAAAAAAGGAAAGUAUUAUGUUACGCCGUUCGGAUCUGCA: 0.0736
AGUCCUGUGCUACACAUCGUAUGUACCGAAUCGGGGUUUUGGGUUUUGGGGUUUUGGGAAAGUAUUAUGUUACGCCGUUCGGAUCUGCAC: 0.144
CUCAAGUCCUGUGCUACACAUCGUAUGUACCGAAUCGGGGAGGGGAGGGAGGGAAAGUAUUAUGUUACGCCGUUCGGAUCUGCACUUCCA: 0.734
GCAGGAAGUAAAAACAAAUGGAAAUGCUUCGGAUAGUGGCAGGGGUGGGGGUUGCUUAGGAAAGGGUGGGAUGGGAGUGGGUAAAGAGUU: 1.45

Some of these lines once more (set 5):
AGUCCUGUGCUACACAUCGUAUGUACCGAAUCGGGGUUUUGGGUUUUGGGGUUUUGGGAAAGUAUUAUGUUACGCCGUUCGGAUCUGCAC: 0.144
AAGUCCUGUGCUACACAUCGUAUGUACCGAAUCGGGAAAAGGAAAAGGAAAAGGGGAAAGUAUUAUGUUACGCCGUUCGGAUCUGCACUU: -0.0681
GCAGGAAGUAAAAACAAAUGGAAAUGCUUCGGAUAGUGGCAGGGGUGGGGGUUGCUUAGGAAAGGGUGGGAUGGGAGUGGGUAAAGAGUU: 1.45
AGUCCUGUGCUACACAUCGUAUGUACCGAAUCGGCCCCCGGGGCCCCCGGGCCCCCGGAAAGUAUUAUGUUACGCCGUUCGGAUCUGCAC: -0.529
AAGUCCUGUGCUACACAUCGUAUGUACCGAAUCGGGUGGGAAAGGGUUUUUUUGGGAAAGUAUUAUGUUACGCCGUUCGGAUCUGCACUU: 0.659
